Measurements gathered from unrelated publications.
Protocols differ between the studies behind these lines. ± marks the error that the study gave.

SMILES	assay	test system	setting	scale	endpoint	value
NC[C@@H](C(=O)Nc1ccc(-c2cn[nH]c2)cc1)c1ccccc1	OECD 405 eye irritation	New Zealand White rabbit, eye	topical, 0.1%, 49 h (day 3), scale 0 to 4	direction not given	chemosis score	0
CSCC(NC(=O)c1cc(Cl)ccc1Cl)C(=O)NC(CC(C)C)B(O)O (stereo not shown)	–	bile duct-cannulated rat	0.30 mg/kg of prodrug	–	detection in bile	not detected
Cn1c(=O)oc2ccc(-c3ccc(CC(C#N)NC(=O)C4CNCCCO4)c(F)c3)cc21 (stereo not shown)	refers to: acne	human volunteers	oral, dose not given	–	treatment-related adverse event incidence	3.7%
C=C(c1ncc(C(=O)O)cn1)c1cc2c(cc1C)C(C)(C)CCC2(C)C	–	Sprague-Dawley rat, male	oral, 100 mg/kg, 12 h, sesame oil vehicle	–	blood cholesterol	62 ± 4.7 mg/dL
COc1cc2c(cc1OC)CN(CCCCn1ccc3cc(OCC[18F])ccc31)C2	–	male CD-1 mouse, kidney	intravenous, 30 min	–	tracer uptake	8.75 %ID/g
CC(C)CCCC(C)CCCC(C)CCOC1OC[C@H](O)[C@H](O)[C@H]1O (stereo partly shown)	drop shape analysis	water/n-octane	solubility limit, 100 s, room temperature	–	interfacial tension	21.9 mN/m
CC(=O)N[C@H](CC(=O)O)C(=O)N[C@H](Cc1c[nH]c2ccccc12)C(=O)N[C@H](Cc1ccccc1)C(=O)N[C@H](CCCCN)C(=O)N[C@H](C)C(=O)N[C@H](Cc1ccccc1)C(=O)N[C@H](Cc1ccc(O)cc1)C(=O)N[C@H](CC(=O)O)C(=O)N[C@H](CCCCN)C(=O)N[C@@H](C(=O)N[C@H](C)C(=O)N[C@H](CCC(=O)O)C(=O)N[C@H](CCCCN)C(=O)N[C@H](Cc1ccccc1)C(=O)N[C@H](CCCCN)C(=O)N[C@H](CCC(=O)O)C(=O)N[C@H](C)C(=O)N[C@H](Cc1ccccc1)C(N)=O)C(C)C	–	statin-treated high-risk CHD women, plasma	oral, 100 mg daily, day 13, 0 to 8 h, mean, undetectable set to 0	–	Cmax	2.25 ng/mL
CC(=O)N([O-])CCCCCNC(=O)CCC(=O)N([O-])CCCCCNC(=O)CCC(=O)N([O-])CCCCCN.[89Zr+4]	radio-iTLC	aqueous buffer	3 h, pH 8.0, 37 °C, EDTA challenge, added: 100-fold excess EDTA	–	intact complex	97.5 ± 0.4%
CCCC[C@H](NC(=O)CNC(=O)CNC(=O)CN1CCN(CC(=O)O)CCN(CC(=O)O)CCN(CC(=O)O)CC1)C(=O)N[C@H]1CC(=O)NCCCC[C@@H](C(N)=O)NC(=O)[C@H](Cc2c[nH]c3ccccc23)NC(=O)[C@H](CCCNC(=N)N)NC(=O)[C@@H](Cc2ccccc2)NC(=O)[C@H](Cc2c[nH]cn2)NC1=O [indium-111 labelled]	RP-HPLC	mouse serum	24 h, 37 °C	–	serum stability	stable
Cc1ccc(OCC(=O)N(Cc2cccs2)c2ccn[nH]2)cc1	–	beagle dog, male, plasma	oral gavage, 100 mg/kg	–	dose-normalised AUC(0-last)	7.04 ng·h/mL/mg/kg
C=CC(=O)Nc1cc(Nc2nccc(-c3cn(C4CC4)c4ccccc34)n2)c(OC)cc1NC	radio-HPLC, co-eluting peaks pooled	human male, feces	oral, 110 mg, 0 to 240 h, sample holds 81.99% dose	reference: dose	excreted amount	0.94%
COC(=O)c1ccc2c(c1)NC(=O)/C2=C(\Nc1ccc2c(c1)CCN2C(=O)CN1CCOCC1)c1ccccc1	–	Caco-2	2 µM, 2 h	–	Papp A→B	0.43 ×10⁻⁶ cm/s
CCCCCCCCS(=O)(=O)CC(=O)C(F)(F)F	19F NMR	chloroform	–	–	hydrate fraction	100%
CC(C)[C@H](NC(=O)[C@@H]1CCCN1C(=O)[C@H](CCCNC(=N)N)NC(=O)[C@H](CS)NC(=O)[C@H](Cc1c[nH]c2ccccc12)NC(=O)[C@H](CCCNC(=N)N)NC(=O)[C@@H](Cc1ccccc1)NC(=O)[C@H](Cc1c[nH]cn1)NC(=O)[C@H](CCC(=O)O)NC(=O)[C@H](CS)NC(=O)[C@H](CS)NC(=O)[C@@H]1CC(=O)N[C@@H](CCCNC(=N)N)C(=O)NCC(=O)N[C@@H](CC(=O)O)C(=O)N[C@H](Cc2ccc(O)cc2)C(=O)N1)C(N)=O [technetium-99m labelled]	–	C57 mouse, female, B16/F1 melanoma	intravenous, 0.037 MBq, 24 h	reference: tumour over blood	tumour to tissue ratio	71.8
CN1CCC[C@]1(C)/C=C/S(=O)(=O)NC(=O)Nc1c2c(cc3c1CCC3)CCC2	–	human, plasma	oral, 12.5 mg twice daily, day 14, multiple ascending dose	–	Tmax after first dose, median	48 min
CC(C)C[C@@H](NC(=O)[C@H](NC(=O)[C@H]1CCCN1)[C@H](C)O)C(=O)N[C@H](Cc1c[nH]cn1)C(=O)N[C@@H](C(=O)N[C@H](Cc1c[nH]cn1)C(=O)N[C@H](CC(N)=O)C(=O)N[C@H](CCCNC(=N)N)C(=O)N[C@H](CCCNC(=N)N)C(=O)N[C@H](CCCNC(=N)N)C(=O)N[C@H](CCCNC(=N)N)C(=O)N[C@H](CCCNC(=N)N)C(N)=O)[C@H](C)O	–	beagle dog, plasma	oral, 50 mg/kg, single dose	–	MRT	35 h
[11CH3]c1ccc2nc(C3CCC3)n(-c3ccc4[nH]ncc4c3)c2n1	–	human male, pancreas	–	–	absorbed radiation dose	3.1 µSv/MBq

SMILES	assay	test system	setting	scale	endpoint	value
CCCC[C@H](NC(=O)CNC(=O)CNC(=O)CN1CCN(CC(=O)O)CCN(CC(=O)O)CC1)C(=O)N[C@H]1CC(=O)NCCCC[C@@H](C(N)=O)NC(=O)[C@H](Cc2c[nH]c3ccccc23)NC(=O)[C@H](CCCNC(=N)N)NC(=O)[C@@H](Cc2ccccc2)NC(=O)[C@H](Cc2c[nH]cn2)NC1=O [gallium-67 labelled]	–	female C57 mice, B16/F1 melanoma	intravenous, 0.037 MBq, 2 h	reference: tumour over kidney	tumour to tissue ratio	3.01
O=C(CCc1ccc(CNC(C(=O)OC2CCCC2)C2CCCCC2)cn1)NO (stereo not shown)	–	human, plasma	oral, 20 mg once daily, day 7, geometric mean	–	AUC(tau)	98.8 ng·h/mL
CCN(CC)c1ccc2c(-c3ccccc3C(=O)OCCOCCOCC[18F])c3ccc(=[N+](CC)CC)cc-3oc2c1	–	rat, lung	60 min	–	tissue uptake	0.56 ± 0.05 %ID/g
CC(C)[C@H](NC(=O)CNC(=O)[C@H](CCC(N)=O)NC(=O)[C@H](C)N)C(=O)O	LC-MS/MS	human, male, plasma	intravenous, 30 mg/kg three times daily, day 1, first dose, 10 min infusion, geometric mean	–	clearance	767 mL/min/kg
CCCC[C@H](NC(=O)CNC(=O)CNC(=O)CN1CCN(CC(=O)O)CCN(CC(=O)O)CCN(CC(=O)O)CC1)C(=O)N[C@H]1CC(=O)NCCCC[C@@H](C(N)=O)NC(=O)[C@H](Cc2c[nH]c3ccccc23)NC(=O)[C@H](CCCNC(=N)N)NC(=O)[C@@H](Cc2ccccc2)NC(=O)[C@H](Cc2c[nH]cn2)NC1=O [copper-64 labelled]	–	female C57 mouse, B16/F1 melanoma	intravenous, 0.037 MBq, 24 h	reference: tumour over lung	uptake ratio	1.34
COC(=O)c1ccc(CCc2cc3cc4nc(c(OC)c5[nH]c(cc6nc(cc2[nH]3)CC6(C)C)cc5CCCNC(=O)OC(C)(C)C)C(=O)C4(C)C)cc1	–	DMF	room temperature	–	kf^−1	16 ns
COc1cccc(C=NCCCN(C)CCN(C)CCCN=Cc2cccc(OC)c2[O-])c1[O-].[67Ga+3]	–	rat	intravenous, 2 h	reference: heart over blood	tissue uptake ratio	54 ± 10
CO[C@H]1/C=C/O[C@@]2(C)Oc3c(C)c(O)c4c(c3C2=O)C2=NC3(CCN(CC(C)C)CC3)NC2=C(NC(=O)/C(C)=C\C=C\[C@H](C)[C@H](O)[C@@H](C)[C@@H](O)[C@@H](C)[C@H](OC(=O)c2cccnc2)[C@@H]1C)C4=O	–	CD-1 mice, plasma	oral	reference: metabolite AUC over parent AUC	deacylated metabolite exposure	0.01%
O=C(NCCCN(CCCCN(CCCNC(=O)c1cccc(=O)n1[O-])C(=O)c1cccc(=O)n1[O-])C(=O)c1cccc(=O)n1[O-])c1cccc(=O)n1[O-].[89Zr+4]	–	mouse, intestine	10 min	–	tracer uptake	5.99 %ID/g
C[Si]1(C[C@H](CN)CC(=O)O)CCCC1	–	Sprague-Dawley rat, male, brain	oral, 100 mg/kg, estimated as Cmax x Kp	–	brain Cmax	13.6 µM
O=C([O-])CN1CCN(CC(=O)[O-])CCN(CC(=O)NCC2CCC(C(=O)NC(Cc3ccc4ccccc4c3)C(=O)NCCCCC(NC(=O)NC(CCC(=O)O)C(=O)O)C(=O)O)CC2)CCN(CC(=O)[O-])CC1.[44Sc+3] (stereo not shown)	transmetallation stability	–	1 h, 37 °C, added: Ca2+ 10 mM	–	intact complex	98.3 ± 0.5%
OCc1cn(Cc2ccc(-c3noc(-c4ccc(OCC[18F])c(C(F)(F)F)c4)n3)cc2)nn1	–	Lewis rats, female, cerebellum	intravenous, 5 min	–	brain uptake	0.53 %ID/g
COc1ccc(NC(=O)[C@H](CCCCN)NC(=O)c2cc(NC(=O)[C@H](CCCCN)NC(=O)c3cc(NC(=O)[C@H](CCCCN)NC(=O)c4cc(NC(=O)[C@@H](N)CCCCN)ccc4OC)ccc3OC)ccc2OC)cc1C(N)=O	UV-vis λmax shift	TBS	pH 7.4, monomer-hexamer fit, added: NaCl 0.15 M	–	association midpoint concentration	0.19 mM
COc1cc(NC(C)=O)c2c(c1O)-c1c(OC)c(OC)cc3c1C(C2)N(C)CC3 (stereo not shown)	–	rat kidney homogenate	50 µg/mL, 24 h, room temperature, post-preparative storage	–	remaining compound	91.5 ± 1.9%
O=C(Cc1ccc2ccccc2c1)N[C@H](Cc1ccccc1)C(=O)N[C@H](Cc1ccccc1)C(=O)N[C@H](Cc1ccc(O)cc1)C(=O)N[C@H](Cc1ccc(OP(=O)(O)O)cc1)C(=O)O	substrate, rheology	hydrogel	0.5 wt%, added: alkaline phosphatase 0.05 U/mL	–	gelation time	0.7 h
CC(C)c1cnc(-c2cc(Cl)ccc2F)cc1Nc1ccncc1C(=O)NC(CO)CO	refers to: hepatic haemorrhage	human patients	oral, dose not given, grade 2	–	patients with related SAE	0%
CCCC[C@H](NC(=O)[C@H](CC(C)C)N(C)C(=O)CNC(=O)[C@@H](NC(=O)[C@H](Cc1ccccc1)NC(=O)[C@H](CCCCN)NC(=O)[C@@H](N)CC(=O)O)C(C)C)C(N)=O	–	Göttingen minipig, plasma	subcutaneous, 100 µg/kg	–	elimination half-life	9.1 min

Excerpt of the above:
SMILES	assay	test system	setting	scale	endpoint	value
COc1cc(NC(C)=O)c2c(c1O)-c1c(OC)c(OC)cc3c1C(C2)N(C)CC3 (stereo not shown)	–	rat kidney homogenate	50 µg/mL, 24 h, room temperature, post-preparative storage	–	remaining compound	91.5 ± 1.9%
O=C(Cc1ccc2ccccc2c1)N[C@H](Cc1ccccc1)C(=O)N[C@H](Cc1ccccc1)C(=O)N[C@H](Cc1ccc(O)cc1)C(=O)N[C@H](Cc1ccc(OP(=O)(O)O)cc1)C(=O)O	substrate, rheology	hydrogel	0.5 wt%, added: alkaline phosphatase 0.05 U/mL	–	gelation time	0.7 h
CC(C)c1cnc(-c2cc(Cl)ccc2F)cc1Nc1ccncc1C(=O)NC(CO)CO	refers to: hepatic haemorrhage	human patients	oral, dose not given, grade 2	–	patients with related SAE	0%
CCCC[C@H](NC(=O)[C@H](CC(C)C)N(C)C(=O)CNC(=O)[C@@H](NC(=O)[C@H](Cc1ccccc1)NC(=O)[C@H](CCCCN)NC(=O)[C@@H](N)CC(=O)O)C(C)C)C(N)=O	–	Göttingen minipig, plasma	subcutaneous, 100 µg/kg	–	elimination half-life	9.1 min
